Experimental data pooled from the literature.
± marks the error that the study gave.

`O=C(CCC(C(=O)[O-])N1CCN(C(CCC(=O)NCC(O)CO)C(=O)[O-])Cc2cccc(n2)CN(C(CCC(=O)NCC(O)CO)C(=O)[O-])CC1)NCC(O)CO.[153Gd+3]` (stereo not shown) gave an excreted radioactivity of 5.7% (Beagle dog, feces; intravenous, 0.2 mmol Gd/kg, 168 h; relative to: dose).
The protein-bound activity of `C[C@@H](O)[C@H](NC(=O)[C@@H]1CSSC[C@H](NC(=O)[C@@H](Cc2ccccc2)NC(=O)CN2CCN(CC(=O)O)CCN(CC(=O)O)CCN(CC(=O)O)CC2)C(=O)N[C@@H](Cc2ccc(O)cc2)C(=O)N[C@H](Cc2c[nH]c3ccccc23)C(=O)N[C@@H](CCCCN)C(=O)N[C@@H]([C@@H](C)O)C(=O)N1)C(=O)O` is reported as under 10% (mouse serum; concentration not given, 37 °C).
For `COCCOCCOCCOCCOCCOCCOCCOCCOCCOCCOCCOCCOCCOCCOCCOCCOCCOCCOCCOCCOCCOCCNC(=O)CCC1(Cc2ccccc2)c2ccccc2-c2ccc(-c3sc(-c4c5c(c(-c6sc(-c7ccc8c(c7)C(CCC(=O)NCCOCCOCCOCCOCCOCCOCCOCCOCCOCCOCCOCCOCCOCCOCCOCCOCCOCCOCCOCCOCCOCCOC)(Cc7ccccc7)c7ccccc7-8)c7c6OCCO7)c6nsnc46)N=S=N5)c4c3OCCO4)cc21` (stereo not shown), the zeta potential was -22.4 ± 0.5 mV (aqueous solution).
`Cc1cc(O)cc(O)c1C(=O)c1c2c3c(c(O)cc(C)c3oc1=O)C(=O)c1c(O)cc(O)cc1-2` has an efflux ratio of 37.7 (Caco-2 monolayer; 200 µM, 3 h, pH 7.4; relative to: AP to BL over BL to AP).
For `Oc1ccc2ccccc2c1/N=N/c1ccccc1`, the measured concentration was 0.203 µg/L (extracted rat blood QC samples; 0.2 µg/L, 8 h, room temperature, short-term stability).
`CC[C@H](C)[C@H](NC(=O)[C@H](Cc1ccccc1)NC(=O)[C@H](CC(=O)O)NC(=O)[C@H](CCCNC(=N)N)NC(=O)[C@H](Cc1ccccc1)NC(=O)[C@H](Cc1ccccc1)NC(=O)[C@H](CCCN)NC(=O)[C@H](CO)NC(=O)[C@H](CC(C)C)NC(=O)[C@H](CCCNC(=N)N)NC(=O)[C@H](CCSC)NC(=O)[C@H](C)N)C(=O)N[C@@H](CCCCN)C(=O)N[C@@H](CCC(N)=O)C(=O)N[C@@H](CCCNC(=N)N)C(=O)N[C@@H](CCCCN)C(=O)N[C@@H](CCCCN)C(=O)O` gave a helicity of 17.4% (circular dichroism; 20% TFE in PBS; 200 µM, pH 7.4, 25 °C).
`N=C(N)NCCC[C@@H]1NC(=O)[C@H](Cc2c[nH]c3ccccc23)NC(=O)[C@@H](CC2CCCCC2)NC(=O)[C@@H]2CCCN2C(=O)[C@@H](NC(=O)CCc2ccccc2)CCCNC1=O` has an elimination half-life of 46 min (C57BL/6J mice, spinal cord; oral, 1 mg/kg).
`CC(=O)N[C@H](C)c1cc(Cl)ccc1Cn1c(=S)[nH]c(=O)c2[nH]ccc21` has an exposure ratio of 0.7 (dog, both sexes, plasma; oral, 100 mg/kg/day; relative to: dog over human 5 mg).
With `O=C1/C(=C/c2ccc(B(O)O)cc2)CC/C1=C\c1ccc(B(O)O)cc1` the zeta potential was -15.3 mV (water).
Under “volume of distribution”, `CC(C)[C@H](NC(=O)CNC(=O)[C@H](CCC(N)=O)NC(=O)[C@H](C)N)C(=O)O` is recorded as 3 L/kg (human male, plasma; intravenous infusion, 10 mg/kg single, 15 min infusion, geometric mean).
Under “decrease of fluorescence quantum yield”, `COCCOCCOCCOCCC(=O)NCc1cc(CNC(=O)CCOCCOCCOCCOC)cc(-c2cc3cc4nc(c(OC)c5[nH]c(cc6nc(cc2[nH]3)CC6(C)C)cc5-c2cc(CNC(=O)CCOCCOCCOCCOC)cc(CNC(=O)CCOCCOCCOCCOC)c2)CC4(C)C)c1` is recorded as 20% (PBS; relative to: DMF).
`COCC1CN(C2CCN(c3cc(OC)c(Nc4ncc(Br)c(Nc5ccc6c(c5P(C)(C)=O)OCCO6)n4)cc3C)CC2)C1`: “accumulation ratio of Cmax” 1.7 to 4.1 (human, plasma; oral, 10 to 150 mg multiple doses, 21 days).
Under “treatment-emergent adverse event incidence”, `Cn1c(=O)oc2ccc(-c3ccc(CC(C#N)NC(=O)C4CNCCCO4)c(F)c3)cc21` (stereo not shown) is recorded as 7.4% (measured: lymphadenopathy; human volunteers; oral, dose not given).
The concentration of `C[Si]1(C[C@@H](CN)CC(=O)O)CCCC1` is reported as 32.1 µM (male Sprague-Dawley rat, plasma; oral, 30 mg/kg, 1 h, single dose).
`C[C@H](NC(=O)[C@H](CCCNC(=N)N)N(C)C(=O)[C@@H]1CCCN1C(=O)[C@H](CCCNC(=N)N)NC(=O)CNC(=O)c1ccc2c(c1)C1(OC2=O)c2ccc(O)cc2Oc2cc(O)ccc21)C(=O)N[C@@H](Cc1ccccc1)C(=O)N[C@H](C(=O)N[C@@H](Cc1ccccc1)C(=O)N(C)CC(=O)N[C@@H](CCC(=O)O)C(=O)NCC(N)=O)[C@@H](C)O` gave a 9-mer fragment of 40% (CE-LIF; HeLa cytosolic lysate; 60 min, sarcosine-glutamate bond hydrolysis; relative to: total peptide).
`O=C(O)C1OC(OC2CCC(C(O)CC3c4c(F)cccc4-c4cncn43)CC2)C(O)C(O)C1O` (stereo not shown) gave an AUC(0-48 h) of 2.36 µM·h (human, plasma; oral, 200 mg, 0 to 48 h pooled).
The concentration of `CC[C@@H](C)[C@H]1NC(=O)[C@@H]([C@H](C)O)NC(=O)[C@@H](Cc2c[nH]cn2)NC(=O)CNC(=O)[C@@H](CCCNC(=N)N)NC(=O)CNC(=O)[C@@H](Cc2ccccc2)NC1=O` is reported as about 0.391 µM (Wistar rat, female, vitreous; ocular, 10 µL eye drop, 3 h).
`CN(C)c1cc(CN2CCCCC2)c(O)c2c1C[C@H]1C[C@H]3[C@H](N(C)C)C(O)=C(C(N)=O)C(=O)[C@@]3(O)C(O)=C1C2=O` has an oral bioavailability of 7.8% (cynomolgus monkey, plasma; oral, 5 mg/kg).
`CC(C)c1cnc(-c2cc(Cl)ccc2F)cc1Nc1ccncc1C(=O)NC(CO)CO`: “patients with ALT increase” 9.5% (patients, phase I monotherapy; oral, dose not given, grade 3).
`CC=C1C(OC2OC(CO)C(O)C(O)C2O)OC=C(C(=O)OC)C1CC(=O)OCC1OC(OCCc2ccc(O)cc2)C(O)C(O)C1O` (stereo not shown): “metabolized parent drug” 100% (mouse intestinal contents, anaerobic; 10 µg/mL, 1 h).
`CN(Cc1ccc(F)cc1)Cc1cc(=O)oc2cc(O)ccc12`: “remaining intact compound” over 99% (human serum; 0.5 mM, 180 min).
With `CC[C@H](C)[C@H](NC(=O)[C@H](Cc1ccccc1)NC(=O)[C@H](CC(=O)O)NC(=O)[C@H](CCCNC(=N)N)NC(=O)[C@H](Cc1ccccc1)NC(=O)[C@H](Cc1ccccc1)NC(=O)[C@H](CCN)NC(=O)[C@H](CO)NC(=O)[C@H](CC(C)C)NC(=O)[C@H](CCCNC(=N)N)NC(=O)[C@H](CCSC)NC(=O)[C@H](C)N)C(=O)N[C@@H](CCCN)C(=O)N[C@@H](CCC(N)=O)C(=O)N[C@@H](CCCNC(=N)N)C(=O)N[C@@H](CCCCN)C(=O)N[C@@H](CCCCN)C(=O)O` the helicity was 16.9% (circular dichroism; 20% TFE in PBS; 200 µM, pH 7.4, 25 °C).
With `COc1ccc(S(=O)(=O)N2CCc3ccccc3C2)cc1N1CCN(C(=O)c2ccc(F)cc2C(F)(F)F)CC1` the concentration was 77.9 ng/mL (rat, plasma; intravenous, 10 mg/kg, 3 h, single dose).
`[11CH3]c1ccc2nc(C3CCC3)n(-c3ccc4[nH]ncc4c3)c2n1`: “absorbed radiation dose” 3.7 µSv/MBq (human female, pancreas).
`COc1ccc2cc(-c3ccc(-c4ccc(C)cn4)nc3)oc2c1` — result for “fluorescence quantum yield”: 0.91 (acetonitrile; zinc-free ligand, with: quinine bisulfate reference).
For `CNC(=O)c1ccc(N2CCN(Cc3ccc4nc(C)c(=O)[nH]c4c3F)CC2)c([18F])n1`, “remaining intact tracer” read over 95% (rat liver microsomes; 90 min).
`CC(C)(Sc1ccncc1-c1ccc(C#N)c2ccccc12)C(=O)OC1OC(C(=O)O)C(O)C(O)C1O` (stereo not shown) has a Cmax ratio of 353% (adult men, plasma; oral, 15 mg verinurad, severe renal impairment; relative to: impaired over normal renal function).
For `NC(=S)N/N=C/c1ccccn1`, “peak current ratio ipa/ipc” read 0.21 (cyclic voltammetry; DMF; Cu2+ complex).
